# Results of several laboratories.
# Numbered parts are unrelated; each lists some results of a single study. Changes are numbered by the printed parent chain.

# Block 1
# Target: RNA binding protein fox-1 homolog 2, RRM domain, GST-SBP tag (RBFOX2, Homo sapiens, UniProt O43251-10, residues 100-194)
# Method: RNA Bind-n-Seq
# Form: RNA
# Medium: in vitro
# Tested at: 365 nM
# Notes: natural RNA segment, single round, ends assumed
# Baseline: no-protein control
# Direction: higher = stronger binding
# All sequences stand within: GGGAGUUCUACAGUCCGACGAUC … UGGAAUUCUCGGGUGCCAA
# Residues (chain): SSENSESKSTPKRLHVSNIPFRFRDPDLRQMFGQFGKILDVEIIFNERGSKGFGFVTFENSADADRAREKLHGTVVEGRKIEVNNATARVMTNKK
Oligonucleotide,RBNS enrichment (R)
AUAAAACAACCCUGCAGCAGGGGUCCGAAGGGCACAAGUGUGACCGCCUCUCUGUAGCUAAGCACAGUUAGGCUGGGUGAUUUGGAUCCCGACUCGCAUCUGGUAUUGUA,0.513
CCUGCCUGUGUUUCCCUCUUAGGUGCAUUUAUCUUUUUGAUUUUUCCGAGUGGCAUUUAAGUGCACAAAUGAUAACAAGAGGAUUAUUCUCCCGUUCUCAAGGGAGUCAG,0.578
CAGGUAAAAAAAUGAGUACACUGAACAAUAUGUAAUUCAUACGUAUUUUGCAACUUACCUGUGAGCCUGCAAUUAUUUGAGGUUUUUGAGCAAUUGGUGUUUCUAUGUGU,0.546
UGUCGUUUUCAUAACUUGCUGAAUUUCAGGCAUUUUGUUCUACAUGAGGACUCAUAUAUUUAAGCCUUUUGUGUAAUAAGAAAGUAUAAAGUCACUUCCAGUGUUGGCUG,0.603
UUCCCCAAGAAGGUAGUGUACUAGGAUCCUAUUAGUCUGCUUUUCAUAUACUGUACAUCAAGUAUAGGAAAUGUGCACUGAGUAUACUAAAAGUAUAUGCAGGAUUAAUU,0.185
CUGCCACAGGAUUUGCUAAUGUCUGAUGAUCAUGUUCACAGAGAACAUGGGUGAUUACUUGCAGCCAUCCCAGGUGUUUUAGUUUUGCCAAGCUGACUGUGGUAUGUAGC,0.526
UGUCACCUGGAGAUGCCCUCUAUUGUGGCUUGGUUGGGCUUGUGUUUGAAAUGCUUUACAAAGGAAAACUGCAUGCCACAUGAGAAAACUUCAAAGUACACUUGCAAUGC,6.96
UCCCCUCUUGCCCCAACCCCCAGCACCCGGGCUCAGGGACCACAGCAAGGCACCUGCAGGUUGGGCCAUACUGGCCUCGCCUGGCCUGAGGUCUCGCUGAUGCUGGGCUG,0.2
UUCACUUUCCCAUGAAACUGCUGACAGACAGAAGUCACUAAAAUAAGGAAUUUUAAUGUUACUUUUUGAGUAACGACUGAGUUACCAGCAUUCUUGAUUCUUAGCGCUUU,0.263
AUGCAAUGGUGUUACACUGGAGCCCGCUGCAGGCCAGCUCUGCUGUUCACUGGCCCUACCCGAGACUGGUGAAACUGGAAGUCUUCACACUGGAGUUGCUGUUCCAGCUG,0.309
AUUGAGACCGUUUUCCACCAAGUUAGCCUCAUUUGUUCAGUAACACAUCUUACCGAGGAAAGGAGGCAAGGAAGUGCCCUUUUGUGUCUCCUCAUUGUUCACAGCCUGUU,0.342
AUGUUAGGUAUUUAAAUUCUUAAAGAUGUUGGGUUGUUUAUUAGUGGUAUUUUUAUGUUGUCUUAUUUUAGGUAAGCUUCUGUGUAAAGCUAAAAAUCCUGUGAAUACAA,0.551

# Block 2
# Target: Prothrombin, mature alpha-thrombin (F2, Homo sapiens, UniProt P00734)
# Method: aptamer microarray, sandwich
# Form: DNA with 2'F-ANA
# Medium: in vitro
# Tested at: 200 nM
# Notes: whole 15-mer aptamer, many near background
# Added: Cy3 exosite-II aptamer, 400 nM
# Direction: higher = stronger binding
# Oligonucleotide: GGTTGGTGTGGTTGG
Modification,mean fluorescence intensity [a.u.]
2'F-ANA at 4 5 6 11 12 13,73.7
2'F-ANA at 1 3 7 8 10 12 13 14,72.8
2'F-ANA at 1 2 6 7 8 9 10 11 12 13 14,50.9
2'F-ANA at 1 2 9 11 12 13 14,59
2'F-ANA at 1 2 3 4 5 6 7 8 12 15,114
2'F-ANA at 2 5 6 7 9 12 13,94.7
2'F-ANA at 1 6 9 10 11 13 15,56
2'F-ANA at 1 2 6 7 10 11 14 15,50.5
2'F-ANA at 1 2 3 4 6 10 11 12 15,66.1
2'F-ANA at 2 3 4 5 8 11,85.7
2'F-ANA at 3 9 11 12 13,1220
2'F-ANA at 1 6 7 8 9 14,61.3
2'F-ANA at 5 6 9 10 14,44.9
2'F-ANA at 4 7 10 11 15,85.5
2'F-ANA at 2 4 5 7 11 12,145
2'F-ANA at 2 4 6 9 11 12 13 14 15,78.1
2'F-ANA at 1 3 6 7 8 12 14 15,130
2'F-ANA at 2 3 4 7 8 10 13 14,204
2'F-ANA at 2 3 4 5 8 9 10,54.8
2'F-ANA at 1 6 7 9 11 12 14,56.5
2'F-ANA at 2 3 6 7 11 12 14,381
2'F-ANA at 3 4 5 7 11 12 13 14 15,56.4
2'F-ANA at 2 7 9 11 15,339
2'F-ANA at 3 4 6 8 9 10 13 14 15,158
2'F-ANA at 2 3 4 5 6 11 12 13 15,89.6

# Block 3
# Target: CCNE1, cyclin fold, Cln2 fusion (human)
# Method: yeast growth competition, sequencing
# Medium: yeast
# Notes: strong parent motif
# Baseline: not given
# Direction: higher = stronger binding
# Starting sequence: E2F1 docking peptide (human); PPVKRRLDLETDH
Substitution,normalised enrichment score
P1L,3.16
E10P,0.79
V3F,0.916
D12S,1.84
D12W,1.42
D8G,1.03
K4P,0.0785
R6Y,0.341
K4D,-0.181
R5A,-0.0374
D8A,1.07
D8N,2.92
T11L,3.91
P1C,1.3
D8Q,1.48
P2T,1.72
R6H,0.732
D12L,1.69
D8S,1.97
H13R,1.61
K4N,0.717
H13E,2.35
V3R,0.527
P2V,0.947

# Block 4
# Target: Sal-like protein 4, full length isoform A (SALL4, Homo sapiens, UniProt Q9UJQ4, residues 1-1053)
# UniProt Q9UJQ4, sequence (whole entry, looked up): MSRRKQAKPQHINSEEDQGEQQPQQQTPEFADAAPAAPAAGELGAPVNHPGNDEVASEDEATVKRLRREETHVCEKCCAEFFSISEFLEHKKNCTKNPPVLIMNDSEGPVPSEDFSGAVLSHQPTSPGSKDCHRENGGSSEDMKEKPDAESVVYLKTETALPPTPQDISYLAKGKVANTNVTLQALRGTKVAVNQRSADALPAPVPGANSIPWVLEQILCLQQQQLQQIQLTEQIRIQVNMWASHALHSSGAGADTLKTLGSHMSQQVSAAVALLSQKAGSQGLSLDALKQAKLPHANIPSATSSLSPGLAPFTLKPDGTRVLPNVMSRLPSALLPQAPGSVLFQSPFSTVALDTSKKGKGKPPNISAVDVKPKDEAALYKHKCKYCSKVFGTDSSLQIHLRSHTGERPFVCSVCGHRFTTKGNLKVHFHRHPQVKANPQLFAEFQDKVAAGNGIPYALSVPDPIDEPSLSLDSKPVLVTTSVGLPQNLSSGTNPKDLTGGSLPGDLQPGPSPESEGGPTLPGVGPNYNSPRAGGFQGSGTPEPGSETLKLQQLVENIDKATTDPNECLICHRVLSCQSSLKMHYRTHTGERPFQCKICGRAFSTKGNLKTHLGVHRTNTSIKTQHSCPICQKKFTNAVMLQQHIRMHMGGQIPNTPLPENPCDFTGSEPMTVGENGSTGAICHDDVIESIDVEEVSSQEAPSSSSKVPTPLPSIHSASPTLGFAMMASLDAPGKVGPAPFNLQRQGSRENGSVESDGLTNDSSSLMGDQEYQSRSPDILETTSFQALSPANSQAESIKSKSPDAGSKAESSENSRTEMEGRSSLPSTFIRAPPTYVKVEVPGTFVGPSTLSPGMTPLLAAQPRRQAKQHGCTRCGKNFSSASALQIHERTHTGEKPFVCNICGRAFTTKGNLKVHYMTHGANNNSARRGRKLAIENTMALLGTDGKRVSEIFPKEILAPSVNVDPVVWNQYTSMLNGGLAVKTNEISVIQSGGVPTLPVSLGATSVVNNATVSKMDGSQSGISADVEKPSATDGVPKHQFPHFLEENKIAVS
# Method: universal PBM
# Form: double-stranded DNA, one strand shown
# Medium: in vitro
# Tested at: 600 nM
# Notes: 8-mer, flanks averaged, mean of replicates
# Direction: higher = stronger binding
Oligonucleotide,E-score
AGCGCACG,-0.296
CAATCGAA,0.0907
ATCTAAAA,0.19
GTGGAAAC,-0.014
ATGAGTAA,0.192
AAGACACT,-0.00378
CAAATGAA,0.335
ACACGGCC,-0.18
ACGCACCA,-0.207
CTGACGCA,-0.185
AATTATAC,0.32
CCAATCTA,0.0249
ACCACCAA,-0.0835
CTGACGAA,-0.00571
CGATGTAG,-0.0128
CCCGAATC,-0.261
CTGTCGAA,-0.0327
ACCCTTAT,0.157
AACGGTGG,-0.101
CGAAGCCC,-0.248
CTGGGCAA,-0.0834
CCAGAGTC,-0.169
AGAATTGG,0.0786
GGCTGAGA,-0.127
ACACTCCG,-0.185

# Block 5
# Target: Histone acetyltransferase KAT6A, winged helix 2, GST fusion (KAT6A, Homo sapiens, UniProt Q92794, residues 85-181)
# Method: protein binding microarray
# Form: double-stranded DNA, one strand shown
# Medium: in vitro
# Tested at: not given
# Notes: 8-mer, flanks averaged, mean of 2 arrays, mostly near background
# Baseline: not given
# Direction: higher = stronger binding
# Residues (chain): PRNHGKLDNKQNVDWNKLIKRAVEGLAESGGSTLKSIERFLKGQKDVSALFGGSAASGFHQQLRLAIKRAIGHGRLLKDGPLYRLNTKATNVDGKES
Oligonucleotide,E-score
CCCGAAAA,0.106
GCATGTGA,-0.021
CAATCCCG,0.194
TAGCGTAA,-0.0345
TAGGGAGA,-0.0769
CCCGCTCC,-0.0309
AATGGCAC,-0.142
ATGATCAT,0.0397
GGGGGTGA,0.0279
GAGCCCTA,0.0418
AAGACTGA,-0.0713
CAACCTGC,0.0848
ACCTTGGC,-0.04
CCGAAGCA,0.121
CTGATACA,-0.0727
ACAATCGG,-0.0564
CACTTCTC,-0.106
ATTTCACA,-0.00982
AAGATTAA,0.237

# Block 6
# Target: Interferon regulatory factor 5, full length, phosphomimetic (IRF5, Homo sapiens, UniProt Q13568-2, residues 1-514, K96S/S451D/S453D/S456D/S462D)
# Method: protein-binding microarray
# Form: double-stranded DNA, one strand shown
# Medium: in vitro
# Tested at: 250 nM
# Notes: 60-bp whole probe
# Added: salmon DNA 0.4 mg/ml
# Baseline: random background probes
# Direction: higher = stronger binding
# All sequences stand within: GCCTAGCAC … GTCTTGATTCGCTTGACGCTGCTG
Oligonucleotide,log fluorescence [z-score]
ATTAGTATGTTCACTATTTAAGTGCTA,0.607
GACGATTTCGGGACTGCAGACGTGCTA,1.91
GATGGTTTCGGGTTTCGGGACGTGCTA,8.73
GACGGTTTCGACACTGGCGACGTGCTA,4.82
CACGATTCCAGTTTCGAGACGTGCTAG,5.25
TACTGTGTGCATCTATCTTAGTGCTAG,0.263
CCTGAAATCTCTTTCCTTACGTGCTAG,0.847
TCAGGTATCGGTTTCGGTTAGTGCTAG,10.9
TTAGATTTCAGTATCCATTAGTGCTAG,2.47
TGCTCCTTCTGACATCAACCCGTGCTA,0.185
GGTCTTTCCGATTAGTCCCCGTGCTAG,0.792
GACGGTCTCGGTCTCGCGACGTGCTAG,0.097
TCAGCATTCCCTTTCTCACTGTGCTAG,0.652
TTAGGTATCGACGCTGGGTTAGTGCTA,1.69
GACGATTTCTGGTTTCGAGACGTGCTA,3.97
TTAGAATTCGGGTATCGATTAGTGCTA,4.19
TTGGGTATCCTTATCCTTTAGTGCTAG,-0.176
TCAGTCCTCTCTCTATTACTGTGCTAG,0.249
GACGGATTCGACACTGGGGACGTGCTA,-0.377
GACGGTTTCGGTCTCGGGAAGTGCTAG,9.72

# Some of these lines once more (block 3):
Substitution,normalised enrichment score
P1L,3.16
D8S,1.97
R6Y,0.341
H13R,1.61
K4P,0.0785
D8Q,1.48
D12W,1.42
D12S,1.84
D8A,1.07
V3R,0.527
P2V,0.947
